Experimental data collected from several papers.
Protocols differ between the studies behind these lines. Numbers after ± are the reported error.
Faah: Fatty-acid amide hydrolase 1 (Faah, Rattus norvegicus, UniProt P97612)
UniProt P97612, sequence (whole entry, looked up): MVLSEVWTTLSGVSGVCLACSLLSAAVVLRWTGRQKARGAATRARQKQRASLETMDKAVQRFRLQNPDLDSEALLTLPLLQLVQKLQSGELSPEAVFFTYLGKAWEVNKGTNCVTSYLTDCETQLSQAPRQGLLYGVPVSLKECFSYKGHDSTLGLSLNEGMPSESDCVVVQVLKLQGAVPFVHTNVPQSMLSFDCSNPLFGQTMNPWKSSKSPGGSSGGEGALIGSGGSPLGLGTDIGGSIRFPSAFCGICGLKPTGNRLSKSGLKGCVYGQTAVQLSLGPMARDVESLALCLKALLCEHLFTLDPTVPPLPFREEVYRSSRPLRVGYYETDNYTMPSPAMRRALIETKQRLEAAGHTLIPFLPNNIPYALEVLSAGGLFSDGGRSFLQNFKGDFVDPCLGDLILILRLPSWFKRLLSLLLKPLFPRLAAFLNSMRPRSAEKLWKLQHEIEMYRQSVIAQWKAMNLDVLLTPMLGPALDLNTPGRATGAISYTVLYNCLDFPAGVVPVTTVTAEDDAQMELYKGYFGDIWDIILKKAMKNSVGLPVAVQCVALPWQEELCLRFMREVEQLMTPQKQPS
UniProt P31323, sequence (whole entry, looked up): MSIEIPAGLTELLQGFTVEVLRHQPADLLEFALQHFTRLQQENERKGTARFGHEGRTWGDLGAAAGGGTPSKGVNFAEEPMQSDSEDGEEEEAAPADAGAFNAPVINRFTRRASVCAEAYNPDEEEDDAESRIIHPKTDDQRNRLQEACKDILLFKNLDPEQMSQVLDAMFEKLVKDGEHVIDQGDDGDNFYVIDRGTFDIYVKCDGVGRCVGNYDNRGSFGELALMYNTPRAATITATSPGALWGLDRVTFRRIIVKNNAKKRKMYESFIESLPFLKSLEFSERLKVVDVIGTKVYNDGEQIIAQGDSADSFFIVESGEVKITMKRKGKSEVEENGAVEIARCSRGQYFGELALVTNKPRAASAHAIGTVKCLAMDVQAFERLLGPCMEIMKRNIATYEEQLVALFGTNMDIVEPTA
UniProt Q9Y2J8, sequence (whole entry, looked up): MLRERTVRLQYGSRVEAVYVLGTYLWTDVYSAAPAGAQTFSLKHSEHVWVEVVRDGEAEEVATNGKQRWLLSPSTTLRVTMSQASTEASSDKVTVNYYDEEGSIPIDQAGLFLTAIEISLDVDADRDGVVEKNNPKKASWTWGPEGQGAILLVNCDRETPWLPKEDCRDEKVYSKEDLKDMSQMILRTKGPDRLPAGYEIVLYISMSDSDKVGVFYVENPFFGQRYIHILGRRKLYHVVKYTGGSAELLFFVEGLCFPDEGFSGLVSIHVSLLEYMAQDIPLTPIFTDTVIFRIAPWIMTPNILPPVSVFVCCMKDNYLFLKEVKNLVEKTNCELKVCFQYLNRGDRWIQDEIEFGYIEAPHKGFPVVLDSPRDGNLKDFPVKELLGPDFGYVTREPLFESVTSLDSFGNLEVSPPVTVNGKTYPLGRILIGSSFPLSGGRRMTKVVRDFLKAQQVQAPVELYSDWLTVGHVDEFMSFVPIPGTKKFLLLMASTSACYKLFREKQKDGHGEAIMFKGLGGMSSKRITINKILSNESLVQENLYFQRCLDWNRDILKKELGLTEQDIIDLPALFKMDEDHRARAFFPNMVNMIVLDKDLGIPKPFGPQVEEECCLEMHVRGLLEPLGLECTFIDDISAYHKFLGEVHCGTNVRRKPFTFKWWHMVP
UniProt Q0VDG4, sequence (whole entry, looked up): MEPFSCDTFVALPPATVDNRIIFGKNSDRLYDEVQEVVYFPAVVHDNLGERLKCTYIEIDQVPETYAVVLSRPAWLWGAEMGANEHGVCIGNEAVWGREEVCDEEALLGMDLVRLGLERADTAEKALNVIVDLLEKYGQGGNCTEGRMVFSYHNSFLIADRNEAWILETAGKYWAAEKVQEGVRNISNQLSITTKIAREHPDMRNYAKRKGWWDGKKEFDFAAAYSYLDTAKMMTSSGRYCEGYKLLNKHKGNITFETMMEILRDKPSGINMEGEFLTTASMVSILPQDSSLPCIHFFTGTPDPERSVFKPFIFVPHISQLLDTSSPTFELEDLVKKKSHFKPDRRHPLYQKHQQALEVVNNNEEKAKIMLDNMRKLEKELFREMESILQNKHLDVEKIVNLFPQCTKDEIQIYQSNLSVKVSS
UniProt Q8NCG7, sequence (whole entry, looked up): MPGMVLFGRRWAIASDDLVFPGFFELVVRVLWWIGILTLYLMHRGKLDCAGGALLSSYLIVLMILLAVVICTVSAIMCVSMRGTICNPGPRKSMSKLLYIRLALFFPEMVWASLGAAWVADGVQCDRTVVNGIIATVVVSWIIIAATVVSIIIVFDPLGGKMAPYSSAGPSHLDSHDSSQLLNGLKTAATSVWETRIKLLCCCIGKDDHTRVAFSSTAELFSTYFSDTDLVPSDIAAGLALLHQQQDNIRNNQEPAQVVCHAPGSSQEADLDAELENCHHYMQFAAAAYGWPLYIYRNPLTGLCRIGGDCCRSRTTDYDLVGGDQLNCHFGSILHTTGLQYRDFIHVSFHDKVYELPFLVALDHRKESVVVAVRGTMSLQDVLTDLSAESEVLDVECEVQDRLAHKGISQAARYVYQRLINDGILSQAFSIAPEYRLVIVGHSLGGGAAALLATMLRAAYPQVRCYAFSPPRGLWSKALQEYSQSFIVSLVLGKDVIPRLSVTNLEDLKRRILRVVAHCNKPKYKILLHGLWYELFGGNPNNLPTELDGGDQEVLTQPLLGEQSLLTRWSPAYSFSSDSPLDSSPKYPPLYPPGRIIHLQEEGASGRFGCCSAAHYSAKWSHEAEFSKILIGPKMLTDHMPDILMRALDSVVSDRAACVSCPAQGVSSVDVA
UniProt P63208, sequence (whole entry, looked up): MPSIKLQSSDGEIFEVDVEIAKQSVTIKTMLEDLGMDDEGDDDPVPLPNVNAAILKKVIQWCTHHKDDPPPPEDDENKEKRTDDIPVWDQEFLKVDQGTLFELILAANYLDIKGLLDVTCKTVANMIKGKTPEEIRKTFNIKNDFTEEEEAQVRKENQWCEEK
UniProt O42275, sequence (whole entry, looked up): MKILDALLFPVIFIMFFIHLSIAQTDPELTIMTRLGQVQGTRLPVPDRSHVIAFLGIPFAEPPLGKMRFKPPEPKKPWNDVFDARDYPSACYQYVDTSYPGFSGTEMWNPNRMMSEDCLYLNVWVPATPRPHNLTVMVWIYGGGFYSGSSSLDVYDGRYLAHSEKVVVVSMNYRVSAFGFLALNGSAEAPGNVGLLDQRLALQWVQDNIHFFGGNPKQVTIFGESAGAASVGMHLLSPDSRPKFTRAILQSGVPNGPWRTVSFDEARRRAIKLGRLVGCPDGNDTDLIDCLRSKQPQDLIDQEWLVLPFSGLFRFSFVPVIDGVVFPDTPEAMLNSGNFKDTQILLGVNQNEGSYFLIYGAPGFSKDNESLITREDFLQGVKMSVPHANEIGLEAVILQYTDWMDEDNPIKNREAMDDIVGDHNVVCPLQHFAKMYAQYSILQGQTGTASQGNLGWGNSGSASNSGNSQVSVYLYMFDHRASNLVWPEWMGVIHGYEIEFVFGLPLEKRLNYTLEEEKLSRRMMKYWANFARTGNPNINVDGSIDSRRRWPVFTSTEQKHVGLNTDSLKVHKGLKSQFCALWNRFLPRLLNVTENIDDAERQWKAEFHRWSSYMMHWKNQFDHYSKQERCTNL
UniProt P11802, sequence (whole entry, looked up): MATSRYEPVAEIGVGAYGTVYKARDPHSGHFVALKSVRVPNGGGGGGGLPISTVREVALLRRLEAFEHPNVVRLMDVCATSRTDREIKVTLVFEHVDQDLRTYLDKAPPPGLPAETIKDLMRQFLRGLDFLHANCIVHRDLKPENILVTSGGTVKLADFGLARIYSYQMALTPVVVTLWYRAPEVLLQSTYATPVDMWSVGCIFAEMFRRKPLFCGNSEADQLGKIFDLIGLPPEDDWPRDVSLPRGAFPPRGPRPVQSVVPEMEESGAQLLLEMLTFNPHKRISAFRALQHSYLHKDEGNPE
UniProt P43116, sequence (whole entry, looked up): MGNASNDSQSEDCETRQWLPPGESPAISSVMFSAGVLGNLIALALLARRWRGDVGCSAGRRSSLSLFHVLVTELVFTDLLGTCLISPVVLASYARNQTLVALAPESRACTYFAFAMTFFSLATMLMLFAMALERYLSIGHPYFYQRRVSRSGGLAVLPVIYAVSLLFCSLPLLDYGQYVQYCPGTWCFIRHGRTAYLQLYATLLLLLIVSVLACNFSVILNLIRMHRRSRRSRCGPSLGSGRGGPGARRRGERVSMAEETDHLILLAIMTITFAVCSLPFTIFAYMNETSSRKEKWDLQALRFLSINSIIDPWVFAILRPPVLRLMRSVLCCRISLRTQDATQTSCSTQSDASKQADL
UniProt P09936, sequence (whole entry, looked up): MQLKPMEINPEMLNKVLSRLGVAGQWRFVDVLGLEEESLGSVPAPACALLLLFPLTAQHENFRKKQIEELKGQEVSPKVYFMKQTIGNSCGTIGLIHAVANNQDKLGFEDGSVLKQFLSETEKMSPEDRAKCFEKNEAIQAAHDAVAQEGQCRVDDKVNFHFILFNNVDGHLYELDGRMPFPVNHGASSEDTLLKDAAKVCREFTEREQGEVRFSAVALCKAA
UniProt Q9X6J6, sequence (whole entry, unmodified, looked up): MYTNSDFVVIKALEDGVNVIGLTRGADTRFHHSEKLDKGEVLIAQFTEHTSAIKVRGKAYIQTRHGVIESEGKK

Cc1ncsc1-c1ccc([C@H](CC(=O)N2CCN(c3ccc(C#Cc4ccc(C(=O)N5CCC(n6cc(-c7ccc8c(c7)CCN8C(=O)Cc7cccc(OC(F)(F)F)c7)c7c(N)ncnc76)CC5)cc4)cn3)CC2)NC(=O)[C@@H]2C[C@@H](O)CN2C(=O)[C@@H](NC(=O)C2(F)CC2)C(C)(C)C)cc1 — protein reduction (RIPK1 (Homo sapiens, UniProt Q13546); degrader; nude mice, Jurkat xenograft, tumour; intravenous, 10 mg/kg, 6 h, single dose): > 70%
CN(C(=O)n1cnc(-c2ccc[n+]([O-])c2)c1)C1CCCCC1 — fold change (Faah; enzyme activity, ABPP; rat, brain; oral, 10 mg/kg/day, 1 days; relative to: vehicle): -42.3
COc1ccc(N2C(=O)N(c3c(C)cccc3Cl)Cc3cnc(Nc4ccc(C5CCN(C)CC5)cc4OC)nc32)nc1 — inhibition (MUSK (Homo sapiens, UniProt O15146); kinase activity; 0.5 µM): 5%
N[C@@H](Cc1c[nH]c2ccccc12)C(=O)O — ΔG (Transcription attenuation protein MtrB, Δ71 truncation (mtrB, Geobacillus stearothermophilus, UniProt Q9X6J6); isothermal titration calorimetry; 25 °C, one-site model): -9.6 ± 0.04 kcal/mol
O=C(c1ccc(Cl)cc1)N1CCN2C(=O)N(OC(=O)N3CCOc4ccccc43)C(=O)C2C1 (centres unmarked) — median ratio (Diacylglycerol lipase-beta (Homo sapiens, UniProt Q8NCG7); enzyme activity, inhibitor, MS-based ABPP; SW-620 in situ; 10 µM, 2 h, 37 °C; relative to: compound over DMSO, lower = stronger inhibition): 1.1
COc1cc(C(=O)N2CC[C@@H](O)[C@@H](N)C2)cc2nc(-c3cc4ccccc4n3CC3CC3)n(C)c12 — citrullination (PADI2 (Homo sapiens, UniProt Q9Y2J8); enzyme activity, cell lysate; HEK293 expressing PADI2; 100 µM, together with: calcium 2 mM): no effect
CC(=O)N[C@H](C(=O)N1C[C@H](O)C[C@H]1C(=O)NCc1ccc(-c2scnc2C)cc1)C(C)(C)SCCCCCCNC(=O)C[C@@H]1N=C(c2ccc(Cl)cc2)c2c(sc(C)c2C)-n2c(C)nnc21 — binding stoichiometry (Bromodomain-containing protein 4, BD2 (BRD4, Homo sapiens, UniProt O60885, A384K/E383V/K378Q); ITC; concentration not given, 25 °C): 0.69 ± 0.01
CN[C@@H]1C[C@H]2O[C@@](C)([C@@H]1OC)n1c3ccccc3c3c4c(c5c6ccccc6n2c5c31)C(=O)NC4 — remaining activity (TRPM8 (Homo sapiens, UniProt Q7Z2W7); antagonist; HEK293; 5 µM; relative to: control): 113 ± 10.7%
O=C(Nc1cnccc1Cl)N1CCN(Cc2ccc3c(c2)OC(F)(F)O3)CC1 — inhibition (PTGER2 (Homo sapiens, UniProt P43116); radioligand binding, inhibitor; 50 µM, human, together with: [3H]prostaglandin E2): 2%
O=C(CCl)c1cc(Cl)ccc1Cl — labelling (UCHL1 (Homo sapiens, UniProt P09936); covalent, intact protein LC-MS; 12.5 µM): 13.4%
C[C@H]1CN(c2n[nH]c3nc(N[C@H]4CC[C@H](NS(=O)(=O)CCC(F)(F)F)CC4)ncc23)CCO1 — relative abundance (PRKAR2B (Homo sapiens, UniProt P31323); inhibitor, Kinobeads competition profiling; 20 µM; relative to: vehicle): 1.09
CCOC(=O)COc1ccc2c(=O)c3ccccc3oc2c1 — reaction velocity (ache (Electrophorus electricus, UniProt O42275); enzyme activity; 0.84 µM, together with: substrate 1.73 mM; higher = faster reaction): 0.0022 a.u.
O=C(Nc1cccnn1)N1CCC(=Cc2cccc(Oc3ccc(C(F)(F)F)cn3)c2)CC1 — inhibition (Faah; probe labelling, inhibitor, competitive ABPP with azido-FP probe; rat brain membrane fraction; 0.1 µM): 99.7%
NNCCc1c[nH]c2ccccc12 — SILAC ratio (Secernin-3 (Homo sapiens, UniProt Q0VDG4); ABPP-SILAC; HEK-293T cell lysate; 1 µM; relative to: DMSO): 0.5
CC[C@@H](C)[C@@H](NC(=O)[C@@H](Cc1ccc(O)cc1)NC(=O)[C@H]1CCCN1C(=O)[C@@H](CCCNC(=N)N)NC(=O)[C@H](N)Cc1c[nH]cn1)C(=O)N[C@H](C)C(=O)N[C@H](Cc1c[nH]cn1)C(=O)N[C@H](CCCNC(=N)N)C(=O)N[C@H](CCCCNC(=O)c1cccc(S(=O)(=O)F)c1)C(=O)N[C@H](Cc1ccc(O)cc1)C(=O)N[C@H](CO)C(=O)N[C@H](Cc1ccccc1)C(N)=O — surface TFRC expression (Transferrin receptor protein 1 (Tfrc, Mus musculus, UniProt Q62351); flow cytometry; MC-38; 2 h, unit not given; relative to: 0 h): 0.898
CCOC(=O)C(C)Oc1ccc(Oc2cnc3cc(Cl)ccc3n2)cc1 (centres unmarked) — fold change (S-phase kinase-associated protein 1 (SKP1, Homo sapiens, UniProt P63208); binding, affinity selection mass spectrometry; 100 nM, pooled screen; relative to: other proteins): 14.4
COc1cc(Nc2ncc(F)c(Nc3ccc4c(n3)NC(=O)C(C)(C)O4)n2)cc(OC)c1OC — inhibition (CDK4 (Homo sapiens, UniProt P11802); KINOMEscan; 10 µM, -cyclinD3): 6%
